Experimental data pooled from the literature.
Each numbered part is a random draw from the data of one study; scales do not carry over between parts. Changes are numbered by the printed parent chain.

Study 1
Target: Sal-like protein 4, full length isoform A (SALL4, Homo sapiens, UniProt Q9UJQ4, residues 1-1053)
Sequence of UniProt Q9UJQ4 (whole entry, looked up): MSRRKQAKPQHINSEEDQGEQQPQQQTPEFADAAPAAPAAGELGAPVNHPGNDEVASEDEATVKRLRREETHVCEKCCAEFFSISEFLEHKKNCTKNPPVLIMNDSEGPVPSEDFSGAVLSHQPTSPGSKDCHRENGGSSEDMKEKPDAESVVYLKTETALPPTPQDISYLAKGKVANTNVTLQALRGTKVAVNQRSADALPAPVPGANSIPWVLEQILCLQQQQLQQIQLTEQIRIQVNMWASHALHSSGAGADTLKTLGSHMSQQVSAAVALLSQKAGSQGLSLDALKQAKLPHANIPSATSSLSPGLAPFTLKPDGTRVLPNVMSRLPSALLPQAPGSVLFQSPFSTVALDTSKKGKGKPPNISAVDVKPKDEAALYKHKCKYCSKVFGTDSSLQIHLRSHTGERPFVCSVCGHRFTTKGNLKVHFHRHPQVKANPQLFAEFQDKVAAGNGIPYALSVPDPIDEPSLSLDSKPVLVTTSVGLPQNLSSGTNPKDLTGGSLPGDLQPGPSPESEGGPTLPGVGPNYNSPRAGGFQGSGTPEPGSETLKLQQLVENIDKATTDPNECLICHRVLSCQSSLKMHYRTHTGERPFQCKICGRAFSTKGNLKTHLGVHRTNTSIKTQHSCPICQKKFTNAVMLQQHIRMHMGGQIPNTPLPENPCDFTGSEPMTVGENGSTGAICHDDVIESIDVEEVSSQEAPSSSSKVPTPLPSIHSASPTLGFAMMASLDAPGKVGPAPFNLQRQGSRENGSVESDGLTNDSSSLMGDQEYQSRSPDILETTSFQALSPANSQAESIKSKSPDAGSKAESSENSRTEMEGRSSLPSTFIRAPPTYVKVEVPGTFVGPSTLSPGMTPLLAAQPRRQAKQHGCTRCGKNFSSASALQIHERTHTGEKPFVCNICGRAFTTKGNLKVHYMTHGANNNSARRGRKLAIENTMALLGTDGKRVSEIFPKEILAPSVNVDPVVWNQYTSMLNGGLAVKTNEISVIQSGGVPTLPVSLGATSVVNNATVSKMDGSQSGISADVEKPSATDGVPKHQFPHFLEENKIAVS
Method: universal PBM
Molecule type: double-stranded DNA, one strand shown
Medium: in vitro
Tested at: 600 nM
Notes: 8-mer, flanks averaged, mean of replicates
Reading: higher = stronger binding
Oligonucleotide | E-score
AGGAAGTG | -0.0712
ATCGGCAT | 0.233
AGTTGGCA | 0.0188
GGACGATA | 0.0483
AACTAGAT | 0.21
AGTGGGAT | -0.00713
GAACCCCC | -0.419
ACTTTTCG | 0.0561
GGGTAGGA | -0.109
CCTGTGCG | -0.168
ACCGTGAC | -0.18
AAGCTGAC | -0.0418
AGTTCTAG | -0.117
CCGAATAC | 0.0228
CACGTGTC | -0.15
ACTTTGCT | 0.0132
CCGATTCG | 0.0674

Study 2
Target: CCNE2, cyclin fold, Cln2 fusion (human)
Method: yeast growth competition, sequencing
Medium: yeast
Notes: weak parent motif
Reference: not given
Reading: higher = stronger binding
Starting sequence: MICAL3 docking peptide (human); LQLRRQLSFSEDS; partner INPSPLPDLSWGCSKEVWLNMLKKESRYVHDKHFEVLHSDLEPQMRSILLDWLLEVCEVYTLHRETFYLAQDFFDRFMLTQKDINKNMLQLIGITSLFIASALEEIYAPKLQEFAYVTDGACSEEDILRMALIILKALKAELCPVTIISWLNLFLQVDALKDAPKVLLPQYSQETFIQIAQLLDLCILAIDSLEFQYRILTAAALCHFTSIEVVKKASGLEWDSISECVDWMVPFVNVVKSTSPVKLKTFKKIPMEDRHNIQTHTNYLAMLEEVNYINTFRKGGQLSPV
Substitution | normalised enrichment score
LQLRQQLSFSEDS [R5Q] | -0.211
LQLRRQLSFHEDS [S10H] | 0.0902
LQLRRLLSFSEDS [Q6L] | 0.327
LQLRRCLSFSEDS [Q6C] | 0.538
LALRRQLSFSEDS [Q2A] | 0.151
LQLRRQLSFSMDS [E11M] | 0.132
LQLDRQLSFSEDS [R4D] | -0.102
LQLRRQLSFSSDS [E11S] | 0.484
LQLRRQLSFSESS [D12S] | 0.381
LQLRAQLSFSEDS [R5A] | -0.0812
LQLRRQLSFSEYS [D12Y] | 0.347
LQLRRDLSFSEDS [Q6D] | -0.151

Study 3
Target: ATP-dependent RNA helicase DDX3X, helicase core (DDX3X, Homo sapiens, UniProt O00571, residues 132-607)
Sequence of UniProt O00571 (132-607, looked up): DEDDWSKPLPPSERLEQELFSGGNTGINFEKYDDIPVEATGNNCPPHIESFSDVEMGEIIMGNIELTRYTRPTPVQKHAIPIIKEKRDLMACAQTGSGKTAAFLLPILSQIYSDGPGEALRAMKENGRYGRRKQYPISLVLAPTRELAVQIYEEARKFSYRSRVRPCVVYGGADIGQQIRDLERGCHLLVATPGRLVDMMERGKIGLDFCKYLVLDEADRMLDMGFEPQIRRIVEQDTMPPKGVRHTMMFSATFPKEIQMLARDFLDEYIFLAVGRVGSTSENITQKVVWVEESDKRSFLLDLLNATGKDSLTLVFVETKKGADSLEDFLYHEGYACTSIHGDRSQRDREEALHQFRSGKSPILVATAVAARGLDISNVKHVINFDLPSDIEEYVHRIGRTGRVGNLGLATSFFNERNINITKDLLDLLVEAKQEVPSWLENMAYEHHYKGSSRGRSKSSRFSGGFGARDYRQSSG
Method: RNA Bind-n-Seq
Molecule type: RNA
Medium: in vitro
Tested at: 90 pmol
Notes: 4-mer, random 30-nt RNA, single round
Together with: 3 µM iPr-DMDA-PatA, 2 mM ADP, 2 mM phosphate
Reference: input library
Reading: higher = stronger binding
Oligonucleotide | 4-mer enrichment
GGGG | 0.909 fold
GGGU | 0.933 fold
UUAC | 1.01 fold
AUUG | 1.01 fold
AGUU | 1.08 fold
ACGC | 0.872 fold
CACA | 1.15 fold
GGGC | 0.725 fold
UCAA | 1.13 fold
CUAA | 1.1 fold
AGGU | 0.987 fold
GAUU | 1.09 fold
GGAU | 1.02 fold
CCCA | 1.31 fold
AACA | 1.32 fold
UUUC | 0.943 fold

Study 4
Target: Ras GTPase-activating protein-binding protein 1, C-terminal RGG region (G3BP1, Homo sapiens, UniProt Q13283)
Sequence of UniProt Q13283 (whole entry, looked up): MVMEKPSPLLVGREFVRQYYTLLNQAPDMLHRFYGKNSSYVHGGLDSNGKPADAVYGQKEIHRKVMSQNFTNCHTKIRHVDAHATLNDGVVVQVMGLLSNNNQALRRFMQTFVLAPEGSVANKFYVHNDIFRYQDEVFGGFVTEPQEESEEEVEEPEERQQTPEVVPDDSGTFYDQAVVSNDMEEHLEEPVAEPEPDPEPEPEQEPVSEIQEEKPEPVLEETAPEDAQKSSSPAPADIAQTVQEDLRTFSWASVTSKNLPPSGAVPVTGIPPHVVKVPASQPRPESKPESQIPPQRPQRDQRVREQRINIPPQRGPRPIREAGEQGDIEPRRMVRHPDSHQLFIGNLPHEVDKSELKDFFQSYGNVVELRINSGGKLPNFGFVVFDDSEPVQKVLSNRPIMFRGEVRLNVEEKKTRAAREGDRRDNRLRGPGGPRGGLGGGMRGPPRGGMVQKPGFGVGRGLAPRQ
Method: RNA Bind-n-Seq
Molecule type: RNA
Medium: in vitro
Tested at: 1 µM
Notes: whole 134-nt RNA, ends assumed
Together with: 150 mM KCl
Reference: input library
Reading: higher = stronger binding
Constant ends, left off below: GGGAGUUCUACAGUCCGACGAUC … UGGAAUUCUCGGGUGUCAAGG
Oligonucleotide | log2 enrichment
UCAAGUCCUGUGCUACACAUCGUAUGUACCGAAUCGGGUUUGGGUUUGGUUUGGAAAGUAUUAUGUUACGCCGUUCGGAUCUGCACUUCC | -0.794
CUCAAGUCCUGUGCUACACAUCGUAUGUACCGAAUCGGAGGAAAGGUUUUUGGAAAGUAUUAUGUUACGCCGUUCGGAUCUGCACUUCCA | -1.29
UAACUUUAGAGGAGGAUCUGAUGGAUAUGGCAGUGGACGUGGAUUUGGGGACGGCUAUAAUGGGUAUGGAGGAGGACCUGGAGGUGGCAA | -0.913
UCCUCAAGUCCUGUGCUACACAUCGUAUGUACCGAAUCGGAGGUUUGGUGGAAAGUAUUAUGUUACGCCGUUCGGAUCUGCACUUCCAGC | -1.24
CUGUGCUACACAUCGUAUGUACCGAAUCGGGGAAAGGGGAAAAAAAGGGGAAAAAAAGGGGAAAGUAUUAUGUUACGCCGUUCGGAUCUG | -0.285

Some of these lines once more (study 3):
Oligonucleotide | 4-mer enrichment
AUUG | 1.01 fold
CACA | 1.15 fold
GGGG | 0.909 fold
ACGC | 0.872 fold
AACA | 1.32 fold
UUUC | 0.943 fold
GAUU | 1.09 fold
GGAU | 1.02 fold
